Earlier results, collected from citations in different studies.
Protocols differ between the studies behind these lines.
Sequence of UniProt Q14680 (whole entry, looked up): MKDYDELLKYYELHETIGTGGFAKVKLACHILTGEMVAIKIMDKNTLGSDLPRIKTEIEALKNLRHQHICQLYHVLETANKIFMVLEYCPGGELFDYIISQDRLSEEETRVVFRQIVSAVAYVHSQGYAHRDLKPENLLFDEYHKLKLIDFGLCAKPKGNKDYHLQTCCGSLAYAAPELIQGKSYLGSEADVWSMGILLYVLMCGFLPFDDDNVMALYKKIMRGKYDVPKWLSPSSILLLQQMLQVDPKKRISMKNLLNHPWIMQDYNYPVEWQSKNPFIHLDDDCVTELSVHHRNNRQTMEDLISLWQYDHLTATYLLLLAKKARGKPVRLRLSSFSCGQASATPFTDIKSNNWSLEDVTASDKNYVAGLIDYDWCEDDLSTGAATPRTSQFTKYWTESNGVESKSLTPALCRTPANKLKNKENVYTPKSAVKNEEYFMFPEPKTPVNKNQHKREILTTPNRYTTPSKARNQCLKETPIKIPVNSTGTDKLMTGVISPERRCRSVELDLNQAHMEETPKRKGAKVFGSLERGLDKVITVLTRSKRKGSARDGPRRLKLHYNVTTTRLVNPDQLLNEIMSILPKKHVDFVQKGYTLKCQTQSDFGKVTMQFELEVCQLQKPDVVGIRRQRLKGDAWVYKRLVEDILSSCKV

Structure (SMILES)	tested on	test	system	setting	how to read	quantity	result
COc1ccc(CNc2nc(-c3ccc(C(=O)O)cc3)nc3sc4ccccc4c23)cc1Cl	–	–	mouse	–	–	oral bioavailability	~15%
Nc1nc(NC2CC2)c2ncn([C@H]3C=C[C@@H](CO)C3)c2n1	–	–	mouse	–	–	oral bioavailability	76%
Nc1cc(C(F)(F)F)c(-c2nc(N3CCOCC3)nc(N3CCOCC3)n2)cn1	Maternal embryonic leucine zipper kinase (MELK, Homo sapiens, UniProt Q14680)	enzyme activity	–	10 µM	relative to: untreated	remaining activity	64%
CC(F)(F)c1cc(F)ccc1-c1sc2cc(O)ccc2c1Oc1ccc(/C=C/C(=O)O)cc1	–	–	mouse, rat, dog	range across species	–	oral bioavailability	6 to 13%
O=C(CCCCCCC(=O)Nc1ccccc1)NO	–	–	BALB/c nude mouse	oral, 50 mg/kg single dose	–	oral bioavailability	8.33%
O=C1NC(=O)/C(=C/c2ccc3ncnc(N4CCCCC4)c3n2)S1	–	–	mouse	–	–	oral bioavailability	~46%
Cc1cn([C@H]2C[C@H](N=[N+]=[N-])[C@@H](CO)O2)c(=O)[nH]c1=O	–	–	mouse	15 mg/kg	–	oral bioavailability	85%
CC(C)[C@H](C(=O)Nc1ccc(C(=O)NO)cc1)c1ccccc1	–	–	CD2F1 mouse	oral, 50 mg/kg single dose	–	oral bioavailability	27%
CN(C)C(=O)c1cc2cnc(Nc3ccc(N4CCNCC4)cn3)nc2n1C1CCCC1	–	–	mouse	dose not given	–	oral bioavailability	65%

Some of these lines once more:
Structure (SMILES)	tested on	test	system	setting	how to read	quantity	result
CC(C)[C@H](C(=O)Nc1ccc(C(=O)NO)cc1)c1ccccc1	–	–	CD2F1 mouse	oral, 50 mg/kg single dose	–	oral bioavailability	27%
